Experimental data pooled from the literature.
Protocols differ between the studies behind these lines. ± gives the spread as reported.

With `CC[C@H](C)[C@H](NC(=O)[C@@H]1CSCC(=O)NCCCC[C@H](NC(=O)[C@H](Cc2ccc(O)cc2)NC(=O)CNC(C)=O)C(=O)N[C@@H](CO)C(=O)N[C@@H](CCCNC(=N)N)C(=O)N[C@@H](CO)C(=O)N[C@@H](Cc2ccc(O)cc2)C(=O)N2CCC[C@H]2C(=O)N2CCC[C@H]2C(=O)N[C@@H](C(C)C)C(=O)N1)C(=O)N1CCC[C@H]1C(=O)N[C@@H](CC(=O)O)C(N)=O` the Ki was 58000 ± 1000 nM (Mannan-binding lectin serine protease 2 (Homo sapiens, UniProt O00187); together with: 250 µM Z-L-Lys-SBzl substrate).
`CC(=O)N[C@@H](CCCNC(=N)N)C(=O)N[C@@H](Cc1ccc(O)cc1)C(=O)N[C@@H](CCCNC(=N)NC(=O)NCCCCN)C(=O)N[C@H](CC(C)C)C(=O)N[C@@H](CCCNC(=N)N)C(=O)N[C@@H](Cc1ccc(O)cc1)C(N)=O` gave a Ki of greater than 5000 nM (Neuropeptide Y receptor type 5 (NPY5R, Homo sapiens, UniProt Q15761); ligand displacement, radioligand).
`CCCCCCCCCCCCCCCc1ccc(COP(O)(O)=S)cc1` gave a Ki of 4450 nM (Autotaxin (ENPP2, Homo sapiens, UniProt Q13822); free enzyme).
With `CC[C@H](C)[C@H](NC(=O)[C@H](CS)NC(=O)[C@H](CCC(N)=O)NC(=O)[C@H](CC(C)C)NC(=O)[C@H](CCCCN)NC(=O)[C@H](CCCNC(=N)N)NC(=O)[C@H](C)NC(=O)[C@@H](NC(=O)[C@H](CCC(N)=O)NC(=O)[C@@H](NC(=O)[C@H](CCC(=O)O)NC(=O)[C@H](C)NC(=O)[C@H](CCC(N)=O)NC(=O)[C@@H](N)Cc1c[nH]cn1)C(C)C)[C@@H](C)CC)C(=O)N[C@@H](C)C(=O)N[C@@H](CC(=O)O)C(=O)N[C@@H](CCC(N)=O)C(=O)N[C@@H](Cc1ccccc1)C(=O)N[C@@H](Cc1c[nH]cn1)C(=O)N[C@@H](CCCNC(=N)N)C(=O)N[C@@H](CC(C)C)C(=O)N[C@@H](Cc1c[nH]cn1)C(=O)N[C@H](C(=O)N[C@@H](CCC(N)=O)C(=O)N[C@@H](CCC(N)=O)C(=O)O)C(C)C` the Ki was 18 nM (Apoptosis regulator Bcl-2 (BCL2, Homo sapiens, UniProt P10415); ligand displacement, FP).
The Ki of `CCCC(=O)c1ccc2c(c1)sc(=O)n2CCCCCN1CCCCCC1` is reported as 16.3 ± 0.6 nM (Sigma non-opioid intracellular receptor 1 (Sigmar1, Rattus norvegicus, UniProt Q9R0C9); binding, radioligand binding; rat liver membranes; together with: [3H](+)-pentazocine 5 nM).
For `CC[C@H](C)[C@H](NC(=O)[C@@H](Cc1ccn2nccc2c1)NC(=O)[C@@H]1CCCN1C(=O)[C@H](CCCNC(=N)N)NC(=O)[C@@H](N)CCCNC(=N)N)C(=O)N[C@@H](CC(C)C)C(=O)O`, the Ki was 83 nM (Neurotensin receptor type 2 (NTSR2, Homo sapiens, UniProt O95665); ligand displacement, radioligand; cell membranes).
`COC(=O)N(C)[C@@H](Cc1ccccc1)C(=O)N[C@@H](Cc1ccccc1)C(=O)N[C@@H](Cc1ccc2ccccc2c1)C(=O)N[C@@H](CCCNC(=N)N)C(=O)N[C@@H](CC(C)C)C(=O)N[C@@H](CCCNC(=N)N)C(=O)N[C@@H](CCCNC(=N)N)C(=O)N[C@H](C)C(=O)N[C@@H](CCCNC(=N)N)C(=O)N1CCC[C@H]1C(=O)N[C@@H](CCCCN)C(N)=O` gave a Ki of 24.4 nM (Kappa-type opioid receptor (Oprk1, Rattus norvegicus, UniProt P34975); ligand displacement, radioligand).
With `Cc1cc2c(cc1Cl)-c1c(c(C(=O)NC3CC4CC(C3C)C4(C)C)nn1-c1ccc(Cl)cc1Cl)C2` (stereo not shown) the Ki was 2670 ± 333 nM (Cannabinoid receptor 1 (Cnr1, Mus musculus, UniProt P47746); binding, radioligand displacement; mouse brain homogenate without cerebellum; together with: [3H]CP-55,940).
`CC[C@H](C)[C@H](NC(=O)CN)C(=O)N[C@H](C(=O)N[C@@H](CC(N)=O)C(=O)N[C@H](C(=O)N[C@@H](CC(C)C)C(=O)N[C@@H](CCC(N)=O)C(=O)N[C@@H](CCCCN)C(=O)N[C@@H](Cc1ccc(O)cc1)C(=O)N[C@@H](Cc1ccc(O)cc1)C(=O)N[C@H]1CSSC[C@@H]2NC(=O)[C@H](CCCCN)NC(=O)[C@H](C)NC(=O)CNC(=O)[C@H](C)NC(=O)[C@H]([C@@H](C)O)NC(=O)[C@H](CO)NC(=O)[C@@H]3CSSC[C@H](NC(=O)[C@H](CCCNC(=N)N)NC(=O)CNC(=O)CNC(=O)[C@H](CCCNC(=N)N)NC(=O)[C@H](C(C)C)NC(=O)[C@H](CCCNC(=N)N)NC1=O)C(=O)N[C@@H](C)C(=O)N[C@@H](C(C)C)C(=O)N[C@@H](CC(C)C)C(=O)N[C@@H](CO)C(=O)N[C@@H](CSSC[C@@H](C(=O)N[C@@H](CCCNC(=N)N)C(=O)N[C@@H](CCCNC(=N)N)C(=O)N[C@@H](CCCCN)C(=O)N[C@@H](CCCCN)C(N)=O)NC2=O)C(=O)N[C@@H](CC(C)C)C(=O)N1CCC[C@H]1C(=O)N[C@@H](CCCCN)C(=O)N[C@@H](CCC(=O)O)C(=O)N[C@@H](CCC(=O)O)C(=O)N[C@@H](CCC(N)=O)C(=O)N[C@@H]([C@@H](C)CC)C(=O)NCC(=O)N[C@@H](CCCCN)C(=O)N3)[C@@H](C)O)[C@@H](C)CC` has a Ki of 48 nM (Melanocyte-stimulating hormone receptor (MC1R, Homo sapiens, UniProt Q01726); ligand displacement in cells).
The Ki of `C=C[C@@]1(C)CC(=O)[C@]2(O)[C@@]3(C)[C@@H](O)CCC(C)(C)[C@@H]3[C@H](OC(C)=O)[C@H](OC(C)=O)[C@@]2(C)O1` is reported as 949 nM (Solute carrier family 2, facilitated glucose transporter member 1 (SLC2A1, Homo sapiens, UniProt P11166); ligand displacement, radioligand; cell membranes).

Excerpt of the above:
`CCCCCCCCCCCCCCCc1ccc(COP(O)(O)=S)cc1` gave a Ki of 4450 nM (Autotaxin (ENPP2, Homo sapiens, UniProt Q13822); free enzyme).
`CC(=O)N[C@@H](CCCNC(=N)N)C(=O)N[C@@H](Cc1ccc(O)cc1)C(=O)N[C@@H](CCCNC(=N)NC(=O)NCCCCN)C(=O)N[C@H](CC(C)C)C(=O)N[C@@H](CCCNC(=N)N)C(=O)N[C@@H](Cc1ccc(O)cc1)C(N)=O` gave a Ki of greater than 5000 nM (Neuropeptide Y receptor type 5 (NPY5R, Homo sapiens, UniProt Q15761); ligand displacement, radioligand).
